Measurements pooled from the literature.
Numbered parts are unrelated; each lists some results of a single study. Positions count from the first letter of the parent shown.
Chain of UniProt Q14164 (whole entry, looked up): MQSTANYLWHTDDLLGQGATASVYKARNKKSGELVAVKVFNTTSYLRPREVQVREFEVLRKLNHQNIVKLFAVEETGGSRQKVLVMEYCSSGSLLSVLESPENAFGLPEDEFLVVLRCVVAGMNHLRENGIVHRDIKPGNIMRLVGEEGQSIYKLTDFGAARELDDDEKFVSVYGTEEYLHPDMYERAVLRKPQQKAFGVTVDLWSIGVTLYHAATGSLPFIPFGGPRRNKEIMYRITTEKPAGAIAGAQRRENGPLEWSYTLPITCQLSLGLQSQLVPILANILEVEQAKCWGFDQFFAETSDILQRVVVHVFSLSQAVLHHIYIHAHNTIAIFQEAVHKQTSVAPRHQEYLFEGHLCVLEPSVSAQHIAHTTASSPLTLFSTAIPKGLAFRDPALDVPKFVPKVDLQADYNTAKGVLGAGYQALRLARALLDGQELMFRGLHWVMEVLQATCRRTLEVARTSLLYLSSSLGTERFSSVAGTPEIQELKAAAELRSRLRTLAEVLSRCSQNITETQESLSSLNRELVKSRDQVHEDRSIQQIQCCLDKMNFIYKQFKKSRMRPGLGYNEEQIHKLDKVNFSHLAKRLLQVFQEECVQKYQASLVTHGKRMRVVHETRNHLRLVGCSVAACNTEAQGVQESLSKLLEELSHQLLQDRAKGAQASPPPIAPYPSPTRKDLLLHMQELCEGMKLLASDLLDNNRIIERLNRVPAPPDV

Sample 1 — technique: DHFR PCA, deep sequencing; sample: yeast; with: (+)-ABA 710 µM; reference: wild-type fitted maximum; direction: higher = stronger binding
Target: ABI1, truncated, D143A, DHFR fusion (Arabidopsis thaliana)
Notes: methotrexate growth selection, single substitutions
Starting sequence: PYL1, truncated, DHFR fusion (Arabidopsis thaliana); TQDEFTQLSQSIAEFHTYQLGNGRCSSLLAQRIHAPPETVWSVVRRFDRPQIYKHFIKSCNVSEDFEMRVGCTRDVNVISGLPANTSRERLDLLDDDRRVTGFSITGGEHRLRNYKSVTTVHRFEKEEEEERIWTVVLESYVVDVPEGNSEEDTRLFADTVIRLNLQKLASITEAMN; partner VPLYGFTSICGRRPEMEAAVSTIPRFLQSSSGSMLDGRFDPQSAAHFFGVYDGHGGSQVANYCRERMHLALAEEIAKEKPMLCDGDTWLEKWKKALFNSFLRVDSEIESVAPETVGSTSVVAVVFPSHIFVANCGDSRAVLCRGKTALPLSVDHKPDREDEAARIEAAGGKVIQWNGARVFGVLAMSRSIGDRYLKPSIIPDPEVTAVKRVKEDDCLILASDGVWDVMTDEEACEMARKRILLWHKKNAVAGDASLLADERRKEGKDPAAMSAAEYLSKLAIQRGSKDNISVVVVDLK
`V142H`: “relative binding score” 93.8%.
`A158V`: “relative binding score” 104%.
Under “relative binding score”, `Y18S` is recorded as 94.6%.
`L93N` — result for “relative binding score”: 81.1%.
Under “relative binding score”, `F56D` is recorded as 11.8%.
`V70C`: “relative binding score” 97.2%.
`V100L` — result for “relative binding score”: 103%.
For `F66Q`, “relative binding score” read 98.5%.

Sample 2 — target: CCNB1, cyclin fold, Cln2 fusion (human); technique: yeast growth competition, sequencing; sample: yeast; notes: strong parent motif; reference: not given; direction: higher = stronger binding
Starting sequence: BRCA2 docking peptide (human); PSIKRNLLNEFDR; partner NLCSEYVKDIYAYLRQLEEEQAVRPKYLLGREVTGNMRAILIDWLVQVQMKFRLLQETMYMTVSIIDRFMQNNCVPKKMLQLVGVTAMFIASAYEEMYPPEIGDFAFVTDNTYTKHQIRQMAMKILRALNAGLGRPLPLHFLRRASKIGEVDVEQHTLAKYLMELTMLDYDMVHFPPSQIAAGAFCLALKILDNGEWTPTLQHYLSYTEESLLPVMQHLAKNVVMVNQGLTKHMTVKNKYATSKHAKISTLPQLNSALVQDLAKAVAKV
For `L7I`, “normalised enrichment score” read 1.02.
Under “normalised enrichment score”, `N6C` is recorded as 0.933.
`E10Q`: “normalised enrichment score” 1.38.
Under “normalised enrichment score”, `N9S` is recorded as 2.72.
For `N9Q`, “normalised enrichment score” read 2.69.
Under “normalised enrichment score”, `S2T` is recorded as 3.08.
`D12F` — result for “normalised enrichment score”: 0.433.
For `P1N`, “normalised enrichment score” read 2.62.

Sample 3 — technique: competition protein-binding microarray; molecule type: double-stranded DNA, one strand shown; sample: in vitro; concentration: 2 µM; with: Cbf1 competitor, 0.05 µM; direction: higher = stronger binding
Target: Phosphate system positive regulatory protein PHO4, full length, GST-tagged (PHO4, Saccharomyces cerevisiae, UniProt P07270, residues 1-312)
Notes: whole 60-bp probe, lowest competitor level
Target sequence (chain): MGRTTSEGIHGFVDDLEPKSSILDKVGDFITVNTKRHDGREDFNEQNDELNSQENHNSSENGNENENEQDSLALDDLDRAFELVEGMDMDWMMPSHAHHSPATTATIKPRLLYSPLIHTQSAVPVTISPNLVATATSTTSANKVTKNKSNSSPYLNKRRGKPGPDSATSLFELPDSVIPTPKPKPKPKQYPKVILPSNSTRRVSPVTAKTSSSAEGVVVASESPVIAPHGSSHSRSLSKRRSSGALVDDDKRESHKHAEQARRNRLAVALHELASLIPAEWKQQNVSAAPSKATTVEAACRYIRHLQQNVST
With `CATACCCAACCTTGTCACGCTACTTAAGATATTTGTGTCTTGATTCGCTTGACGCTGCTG` the fluorescence intensity was 6840 a.u.
With `CTAACGAAGGTTTGCGATGTGGGTGACAAGCCAAGTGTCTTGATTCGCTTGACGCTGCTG` the fluorescence intensity was 4190 a.u.
With `AGATTTAGTCTATCCCACATGACAGGCAACAGCTCGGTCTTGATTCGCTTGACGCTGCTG` the fluorescence intensity was 8280 a.u.
With `ATAAAAACACTGCGCAGCGTGCTTTTTCGGGTTCCAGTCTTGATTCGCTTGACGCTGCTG` the fluorescence intensity was 8100 a.u.
With `CGGGGTTAAGTTTGATCAGTGGGTGGCTTGCAGCAGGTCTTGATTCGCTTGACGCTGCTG` the fluorescence intensity was 4230 a.u.
`ATTCACTAAGAGGCAAACATGACAACGCGGGCTCCAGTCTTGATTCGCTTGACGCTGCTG` has a fluorescence intensity of 5100 a.u.
`GGACATAACATCGGACTTGTGACGGACGAATCTTTGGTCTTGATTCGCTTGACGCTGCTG` gave a fluorescence intensity of 3640 a.u.
`AAAGCGGTAATTTTTCACGTGTGTTCACATATCTATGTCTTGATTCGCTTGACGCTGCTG` gave a fluorescence intensity of 14000 a.u.

Other studies, line by line
`N#C/C(=C\c1ccc(O)c(O)c1)C(=O)NCc1ccccc1` gave a remaining activity of 105% (Inhibitor of nuclear factor kappa-B kinase subunit epsilon (IKBKE, Homo sapiens, UniProt Q14164); enzyme activity, inhibitor; 0.5 µM; reference: control).

Repeated from above (sample 2):
For `N9Q`, “normalised enrichment score” read 2.69.
Under “normalised enrichment score”, `S2T` is recorded as 3.08.
`D12F` — result for “normalised enrichment score”: 0.433.
For `P1N`, “normalised enrichment score” read 2.62.
